Experimental data from different studies.
Numbered parts are unrelated; each lists some results of a single study.

Series 1 — technique: universal PBM; molecule type: double-stranded DNA, one strand shown; matrix: in vitro; concentration: 600 nM; reading: higher = stronger binding; measurement: E-score
Target: Sal-like protein 4, full length isoform A (SALL4, Homo sapiens, UniProt Q9UJQ4, residues 1-1053)
Sequence of UniProt Q9UJQ4 (whole entry, looked up): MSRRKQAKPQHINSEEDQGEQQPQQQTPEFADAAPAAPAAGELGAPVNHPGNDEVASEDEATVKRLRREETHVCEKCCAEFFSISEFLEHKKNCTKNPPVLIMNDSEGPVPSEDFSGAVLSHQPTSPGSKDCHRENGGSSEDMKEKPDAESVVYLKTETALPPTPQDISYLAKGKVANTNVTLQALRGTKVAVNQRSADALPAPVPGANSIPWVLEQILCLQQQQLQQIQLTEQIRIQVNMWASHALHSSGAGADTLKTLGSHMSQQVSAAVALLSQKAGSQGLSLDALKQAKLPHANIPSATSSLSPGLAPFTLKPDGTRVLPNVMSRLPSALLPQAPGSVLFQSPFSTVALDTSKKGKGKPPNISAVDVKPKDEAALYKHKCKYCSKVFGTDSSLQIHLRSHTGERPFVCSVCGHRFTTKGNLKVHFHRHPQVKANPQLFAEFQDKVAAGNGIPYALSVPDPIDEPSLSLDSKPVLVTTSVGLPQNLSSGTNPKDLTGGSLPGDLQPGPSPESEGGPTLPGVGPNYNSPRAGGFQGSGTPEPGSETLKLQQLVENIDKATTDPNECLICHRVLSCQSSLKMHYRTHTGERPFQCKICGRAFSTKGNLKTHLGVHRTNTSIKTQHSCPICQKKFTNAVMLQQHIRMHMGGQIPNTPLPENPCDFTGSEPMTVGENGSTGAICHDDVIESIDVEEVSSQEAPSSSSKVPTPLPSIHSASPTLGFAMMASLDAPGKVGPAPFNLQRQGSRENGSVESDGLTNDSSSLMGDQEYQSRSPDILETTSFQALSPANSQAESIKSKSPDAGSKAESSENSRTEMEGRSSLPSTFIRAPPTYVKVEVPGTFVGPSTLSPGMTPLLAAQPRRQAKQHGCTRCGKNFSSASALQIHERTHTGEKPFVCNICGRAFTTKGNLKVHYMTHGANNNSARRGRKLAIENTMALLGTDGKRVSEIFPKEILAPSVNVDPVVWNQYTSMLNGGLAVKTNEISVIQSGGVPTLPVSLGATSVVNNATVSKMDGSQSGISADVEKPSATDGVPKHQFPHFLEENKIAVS
Setting: 8-mer, flanks averaged, mean of replicates
Sequence = CCCCCTTC; result = -0.376
Sequence = AGTAGCTG; result = -0.0548
Sequence = GGCCTTCA; result = -0.138
Sequence = AGAATTAA; result = 0.218
Sequence = CTAGCGTC; result = -0.18
Sequence = AAAAAACA; result = 0.294
Sequence = GGGAGCGA; result = -0.231
Sequence = ACAAGCAC; result = -0.099

Series 2 — technique: protein binding microarray; molecule type: double-stranded DNA, one strand shown; matrix: in vitro; concentration: not given; relative to: not given; reading: higher = stronger binding; measurement: E-score
Target: Histone acetyltransferase KAT6A, winged helix 2, GST fusion (KAT6A, Homo sapiens, UniProt Q92794, residues 85-181)
Setting: 8-mer, flanks averaged, mean of 2 arrays, mostly near background
Residues (chain): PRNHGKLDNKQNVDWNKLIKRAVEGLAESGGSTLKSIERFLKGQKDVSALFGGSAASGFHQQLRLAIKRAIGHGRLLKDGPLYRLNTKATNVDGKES
Sequence = AAGCAAAA; result = 0.206
Sequence = GGCTGTAA; result = -0.0877
Sequence = ACTGTATC; result = -0.123
Sequence = ACATGTAC; result = -0.196
Sequence = TACCAACA; result = 0.0292
Sequence = GTCATTTA; result = -0.201
Sequence = AGCGGCTC; result = 0.107
Sequence = AAGCCGGT; result = 0.0666

Series 3 — technique: protein-binding microarray; molecule type: hairpin DNA; matrix: in vitro; concentration: not given; relative to: not given; reading: higher = stronger binding; measurement: median fluorescence
Target: Interferon regulatory factor 1, DNA-binding domain (IRF1, Homo sapiens, UniProt P10914, residues 1-114)
Setting: whole hairpin DNA, median over replicate spots
Residues (chain): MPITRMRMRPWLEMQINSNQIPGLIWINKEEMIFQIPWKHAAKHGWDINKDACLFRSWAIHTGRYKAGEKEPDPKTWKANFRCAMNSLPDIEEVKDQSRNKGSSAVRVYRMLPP
Sequence = GAGGCCCGCAAGCGAAACGCCTCCTGGCGTTTCGCTTGCGGGCCTCACAC; result = 576 a.u.
Sequence = GAGGCCCGAAAGCGAAACGCCTCCTGGCGTTTCGCTTTCGGGCCTCACAC (5mC at 7); result = 1570 a.u.
Sequence = GAGGCCCGAAAGTGAGACGCCTCCTGGCGTCTCACTTTCGGGCCTCACAC; result = 519 a.u.
Sequence = GAGGCCCGAGAGTGAAACGCCTCCTGGCGTTTCACTCTCGGGCCTCACAC; result = 542 a.u.
Sequence = GAGGCCCCAAAGTGAAACGCCTCCTGGCGTTTCACTTTGGGGCCTCACAC; result = 1100 a.u.
Sequence = GAGGCCCGAAAGTGAAACGCCTCCTGGCGTTTCACTTTCGGGCCTCACAC (5mC at 18); result = 2200 a.u.
Sequence = GAGGCCCGACGGTGAAACGCCTCCTGGCGTTTCACCGTCGGGCCTCACAC (5mC at 36); result = 500 a.u.
Sequence = GAGGCCCGAAAGCGAACGGCCTCCTGGCCGTTCGCTTTCGGGCCTCACAC (5mC at 17 29); result = 528 a.u.

Other studies, line by line
Sequence = HSRRSRRSL; target = HLA class I histocompatibility antigen, A alpha chain, allele A*80:01 (Homo sapiens, UniProt P04439); assay = peptide-MHC binding; test system = peptide; setting = concentration not given; measurement = binding; result = inactive
